Published values pooled from the literature.
Compare with care: the assays were run in different laboratories.
RET M918T: Proto-oncogene tyrosine-protein kinase receptor Ret (RET, Homo sapiens, UniProt P07949, M918T)
Chain of UniProt P07949 (whole entry, unmodified, looked up): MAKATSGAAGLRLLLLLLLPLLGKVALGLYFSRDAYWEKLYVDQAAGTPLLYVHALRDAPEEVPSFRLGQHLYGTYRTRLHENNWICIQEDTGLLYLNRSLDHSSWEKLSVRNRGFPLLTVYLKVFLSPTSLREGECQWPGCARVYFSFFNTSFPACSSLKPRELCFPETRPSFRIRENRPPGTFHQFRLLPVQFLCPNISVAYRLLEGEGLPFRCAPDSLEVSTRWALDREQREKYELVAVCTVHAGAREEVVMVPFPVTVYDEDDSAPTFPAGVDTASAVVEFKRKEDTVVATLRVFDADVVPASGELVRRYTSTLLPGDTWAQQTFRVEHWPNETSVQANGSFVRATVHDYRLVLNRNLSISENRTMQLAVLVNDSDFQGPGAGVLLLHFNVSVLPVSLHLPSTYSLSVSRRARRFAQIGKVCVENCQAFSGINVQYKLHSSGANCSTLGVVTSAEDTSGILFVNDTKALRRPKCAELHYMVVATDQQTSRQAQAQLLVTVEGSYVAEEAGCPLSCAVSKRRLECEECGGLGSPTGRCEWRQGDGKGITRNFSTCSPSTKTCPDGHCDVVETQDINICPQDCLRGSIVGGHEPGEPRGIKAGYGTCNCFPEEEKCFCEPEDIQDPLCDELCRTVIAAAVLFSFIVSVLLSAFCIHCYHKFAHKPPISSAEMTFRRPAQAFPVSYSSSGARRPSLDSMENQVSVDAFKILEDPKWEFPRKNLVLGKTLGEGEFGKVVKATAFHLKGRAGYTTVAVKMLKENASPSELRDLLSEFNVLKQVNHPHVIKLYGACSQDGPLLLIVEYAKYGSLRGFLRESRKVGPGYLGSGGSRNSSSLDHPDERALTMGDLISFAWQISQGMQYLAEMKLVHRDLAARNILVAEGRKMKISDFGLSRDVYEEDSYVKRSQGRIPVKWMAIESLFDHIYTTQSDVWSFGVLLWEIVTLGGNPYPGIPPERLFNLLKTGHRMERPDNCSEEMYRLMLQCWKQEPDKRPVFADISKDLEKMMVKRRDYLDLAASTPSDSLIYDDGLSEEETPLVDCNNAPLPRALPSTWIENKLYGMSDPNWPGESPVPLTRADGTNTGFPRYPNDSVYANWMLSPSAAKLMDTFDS
RET: Proto-oncogene tyrosine-protein kinase receptor Ret (RET, Homo sapiens, UniProt P07949)

With `C=CC(=O)N1CCC(COCC(=O)N2CCN(c3nc(-c4cnc(N)nc4C(F)F)nc(N4CCOC[C@@H]4C)n3)CC2)CC1` the remaining binding was 79% (RET M918T; binding, competition with immobilised ligand; 1 µM).
`Cc1cc([C@@H](C)Nc2ccccc2C(=O)O)c2nc(N3CCC(F)(F)CC3)c(C#N)c(=O)n2c1` has a remaining binding of 94% (RET; binding, competition with immobilised ligand; 1 µM).
`COc1cc(-c2cncc3c2CN(C)Cc2cc(N4CCNCC4)ccc2-3)cc(OC)c1OC` gave a remaining activity of 102% (Proto-oncogene tyrosine-protein kinase receptor Ret (RET, Homo sapiens, UniProt P07949, V804M); enzyme activity, inhibitor; 1 µM).
With `Cc1ccc(NC(=O)Nc2cc3c(cc2Oc2ccccc2)n(C)c(=O)n3C)cc1C` the remaining activity was 112% (RET; enzyme activity, inhibitor, radiometric; 0.1 µM).
With `CCCCC(=O)Nc1ccc(-c2ccc3ncn(CCC)c(=O)c3c2)cn1` the remaining binding was 100% (RET M918T; binding, competition with immobilised ligand; 0.5 µM).
With `CCc1cccc(NC(=O)c2cc(-c3ccc(OC)c(S(N)(=O)=O)c3)[nH]n2)c1` the remaining activity was 120% (RET; enzyme activity, inhibitor, radiometric; 0.1 µM).
The remaining activity of `CNc1ncc2c(/C=C/C(=O)N3CCC(OC)CC3)nn(Cc3cccc(C(F)(F)F)c3)c2n1` is reported as 87% (RET; enzyme activity, inhibitor, radiometric; 1 µM).
With `COc1cc(NC(=O)Nc2ccccc2Br)cc2sc(NC(=O)c3ccccc3)nc12` the remaining activity was 93.4% (RET; enzyme activity, inhibitor, radiometric; 10 µM).
For `C1=C/COCc2cc(ccc2OCCN2CCCC2)Nc2nccc(n2)-c2cccc(c2)COC/1`, the remaining binding was 83% (Proto-oncogene tyrosine-protein kinase receptor Ret (RET, Homo sapiens, UniProt P07949, V804L); binding; 0.1 µM).

For quick reference, copied from above:
With `C=CC(=O)N1CCC(COCC(=O)N2CCN(c3nc(-c4cnc(N)nc4C(F)F)nc(N4CCOC[C@@H]4C)n3)CC2)CC1` the remaining binding was 79% (RET M918T; binding, competition with immobilised ligand; 1 µM).
`Cc1cc([C@@H](C)Nc2ccccc2C(=O)O)c2nc(N3CCC(F)(F)CC3)c(C#N)c(=O)n2c1` has a remaining binding of 94% (RET; binding, competition with immobilised ligand; 1 µM).
